Assay results collected from several papers.
Compare with care: the assays were run in different laboratories. “And” joins repeats or separate records; there may be more than shown. ± gives the spread as reported.

| SMILES | target | assay | system | conditions | scale | measurement | value |
| --- | --- | --- | --- | --- | --- | --- | --- |
| Cc1ccc(OCCN(C)C)cc1C(=O)N[C@H](C)c1cc(-c2ccco2)nc2ccccc12 | Replicase polyprotein 1ab, papain-like protease (rep, Severe acute respiratory syndrome coronavirus 2, UniProt P0DTD1) | reporter gene, cell-based |  |  |  | GFP/mCherry signal ratio | 11.3 and 0 and 92 and 92.5 and 38.1 and 68 |
| CC[C@H](C)[C@@H]1NC(=O)[C@H](CCCNC(=N)N)NC(=O)[C@H](CO)NC(=O)[C@H](CCC(=O)O)NC(=O)[C@H](CC(=O)O)NC(=O)CNC(=O)CNC(=O)[C@H]([C@@H](C)O)NC(=O)[C@H](Cc2ccccc2)NC(=O)[C@H](CO)NC(=O)[C@H]([C@@H](C)O)NC(=O)[C@H](C)NC(=O)[C@@H]2CSSC[C@@H](C(=O)N[C@@H](Cc3ccc(O)cc3)C(=O)N[C@@H](Cc3ccccc3)C(=O)N[C@H](C(=O)N[C@H](C(=O)NCC(=O)O)[C@@H](C)O)[C@@H](C)O)NC(=O)[C@H]([C@@H](C)O)NC(=O)[C@H](CSSC[C@H](NC(=O)[C@H](CCC(=O)O)NC(=O)[C@H](CO)NC(=O)[C@H](CCCCN)NC(=O)[C@H](Cc3ccc(O)cc3)NC(=O)[C@@H]3CCCN3C(=O)[C@H](Cc3ccccc3)NC(=O)[C@H](CCCCN)NC(=O)[C@H](CCCNC(=N)N)NC(=O)[C@H](CCCCN)NC(=O)[C@H](CCCCN)NC(=O)[C@H](Cc3ccc(O)cc3)NC(=O)[C@@H]3CCCN3C(=O)[C@@H](NC(=O)[C@H](CC(=O)O)NC(=O)[C@H](CCCCN)NC(=O)[C@H](CCCCN)NC(=O)[C@@H](NC(=O)[C@@H](NC(=O)[C@@H](N)CCC(=O)O)C(C)C)[C@@H](C)CC)[C@@H](C)O)C(=O)N[C@@H](CC(C)C)C(=O)N[C@@H](CCCCN)C(=O)N[C@@H](C)C(=O)N2)NC(=O)[C@H](CCCCN)NC(=O)[C@H](Cc2ccccc2)NC(=O)[C@H](Cc2ccccc2)NC(=O)CNC(=O)[C@@H]2CCCN2C(=O)[C@H](CCCCN)NC(=O)CNC(=O)[C@H](CCC(=O)O)NC(=O)[C@H](CCC(N)=O)NC1=O | KCNQ4 (Homo sapiens, UniProt P56696, D266G) | potassium current, whole-cell patch clamp |  | 10 µM | relative to: wild type | loss of inhibition | ~99% |
| CC(=O)N[C@@H](Cc1cn([C@@H]2O[C@H](CO)[C@H](O)[C@H](O)[C@H]2O)nn1)C(N)=O | ctxB, pentamer (Vibrio cholerae, UniProt P01556) |  |  | concentration not given | relative to: galactose | inhibition potency | 15 fold |
| CC(C)C[C@H](NC(=O)OCc1ccccc1)C(=O)N[C@@H](C[C@@H]1CCNC1=O)C(O)S(=O)(=O)O (stereo partly shown) | Replicase polyprotein 1ab, main protease (rep, Severe acute respiratory syndrome-related coronavirus, UniProt P0C6X7) |  | SARS coronavirus |  |  | k2 | 0.87 s⁻¹ |
| CC[C@H](C)[C@H](NC(=O)[C@H](Cc1ccccc1)NC(=O)[C@@H](N)C(C)C)C(=O)N[C@@H](CC(N)=O)C(=O)N[C@H](C(=O)N[C@@H](CCCCN)C(=O)N[C@H]1CSSC[C@@H]2NC(=O)[C@H](CCCCN)NC(=O)CNC(=O)[C@H](C)NC(=O)[C@H](C)NC(=O)[C@H](CCCCN)NC(=O)CNC(=O)[C@H](C(C)C)NC(=O)[C@H](C)NC(=O)[C@H](C)NC(=O)[C@H](CCCCN)NC(=O)[C@@H]3CSSC[C@@H](C(=O)N[C@@H](Cc4ccc(O)cc4)C(=O)N4CCC[C@H]4C(=O)O)NC(=O)[C@H](CCCCN)NC(=O)[C@H](CSSC[C@H](NC(=O)[C@H](CCC(=O)O)NC(=O)[C@H](CCCCN)NC(=O)[C@H](CO)NC(=O)CNC(=O)[C@H](CCCNC(=N)N)NC1=O)C(=O)N[C@@H](CC(C)C)C(=O)N1CCC[C@H]1C(=O)N[C@@H](C)C(=O)N3)NC(=O)[C@H](CCCCN)NC(=O)CNC(=O)[C@H](CC(N)=O)NC(=O)[C@H](CCSC)NC2=O)C(C)C | Sh (Drosophila melanogaster, UniProt P08510) | toxin block destabilisation, blocker |  | 360 nM, added: external Cs+ |  | Hill coefficient | 2.3 |
| CCCCCCCCCCCCCCCc1cccc(O)c1C(=O)O | Spike glycoprotein (Severe acute respiratory syndrome coronavirus 2, UniProt P0DTC2) | binding, biolayer interferometry |  |  |  | kon | 124 M⁻¹ s⁻¹ |
| CC(C)C[C@@H]1NC(=O)[C@H](CCCNC(=N)N)NC(=O)[C@@H]2CCCN2C(=O)[C@@H]2CSSC[C@H](NC(=O)CNC(=O)[C@@H]3CCCN3C(=O)[C@H](CCCCN)NC(=O)[C@H](CC(=O)O)NC(=O)[C@@H](NC(=O)CN)C(C)C)C(=O)N[C@@H](CCCNC(=N)N)C(=O)N[C@@H](Cc3ccc(O)cc3)C(=O)N[C@@H](CC(C)C)C(=O)N[C@@H](Cc3ccccc3)C(=O)NCC(=O)NCC(=O)N[C@H]3CSSC[C@H](NC(=O)CNC1=O)C(=O)N[C@@H](CCCCN)C(=O)NCC(=O)N[C@@H](CCCCN)C(=O)NCC(=O)N[C@@H](Cc1c[nH]cn1)C(=O)N[C@@H](CC(=O)O)C(=O)N[C@@H](Cc1ccc(O)cc1)C(=O)N[C@H](C(=O)N[C@@H](C)C(=O)N[C@@H](Cc1c[nH]c4ccccc14)C(=O)N[C@@H](CC(=O)O)C(=O)NCC(=O)N[C@H](C(=O)N[C@@H](Cc1ccccc1)C(=O)N[C@@H](CO)C(=O)N[C@@H](CC(=O)O)C(=O)O)[C@@H](C)O)CSSC[C@H](NC(=O)[C@H](CC(=O)O)NC(=O)[C@H](CC(=O)O)NC(=O)[C@H](CC(=O)O)NC(=O)[C@H](CO)NC(=O)[C@H](CCCCN)NC3=O)C(=O)N2 | SCN4A (Homo sapiens, UniProt P35499) | sodium current, automated patch clamp | HEK293 | 1 µM, 50 ms depolarizing pulse | relative to: compound over control | inactivation time constant ratio | 0.91 ± 0.05 |
| O=C1SCCC1NC(C(=O)NCc1ccccc1)C1CC1 (stereo not shown) | TST (Homo sapiens, UniProt Q16762) | activator, refers to: potassium cyanide |  | 17.1 µM, added: sodium thiosulfate 60 mM |  | Km | 5.2 ± 0.98 mM |
| Cc1ccc(N)cc1C(=O)N[C@H](C)c1cccc2ccccc12 | Replicase polyprotein 1a, papain-like protease (Severe acute respiratory syndrome coronavirus 2, UniProt P0DTC1) | binding |  | 10 µM |  | thermal shift (ΔTm) | 5.6 °C and 8 °C and 5.4 °C |
| O=[N+]([O-])c1cccc(O[C@H]2O[C@H](CO)[C@H](O)[C@H](O)[C@H]2O)c1 | ctxB (Vibrio cholerae, UniProt P01556) | binding |  |  | relative to: galactose | relative potency | 58 fold |
| COc1ccc(/C=N/NC(=O)C(C)(C)Oc2ccc(Cl)cc2)c(C(=O)O)c1OC | uncharacterized protein (Candidatus Liberibacter solanacearum, UniProt A0A094YYW1) |  |  |  |  | koff | 0.00147 s⁻¹ |
| CC(C)C[C@H](NC(=O)CNC(=O)[C@H](Cc1ccccc1)NC(=O)[C@@H](NC(=O)[C@@H](NC(=O)c1cccc(S(=O)(=O)F)c1)[C@@H](C)O)C(C)C)C(=O)N[C@@H](CC(N)=O)C(=O)N[C@H](C(=O)N[C@@H](Cc1c[nH]c2ccccc12)C(=O)N[C@@H](CCCCN)C(=O)N[C@@H](CCCNC(=N)N)C(=O)N[C@@H](Cc1ccc(O)cc1)C(=O)N[C@@H](CO)C(=O)N[C@@H](CCCCN)C(=O)NCC(=O)N[C@@H](CCCCNc1ccc([N+](=O)[O-])cc1[N+](=O)[O-])C(N)=O)C(C)C | Spike glycoprotein, RBD (Severe acute respiratory syndrome coronavirus 2, UniProt P0DTC2) | binding |  |  |  | koff | 0.00492 to 0.00514 s⁻¹ |
| CS(=O)(=O)NCC1CCOC2(CCN(C(=O)C3(c4ccccc4)CCCC3)CC2)C1 (stereo not shown) | Polyprotein P1234, nsP2 (Chikungunya virus, UniProt Q8JUX6) | nsP2 ATPase activity, inhibitor, ADP-Glo |  | high micromolar |  | nsP2 ATPase inhibition | active |

Excerpt of the above:
| SMILES | target | assay | system | conditions | scale | measurement | value |
| --- | --- | --- | --- | --- | --- | --- | --- |
| CCCCCCCCCCCCCCCc1cccc(O)c1C(=O)O | Spike glycoprotein (Severe acute respiratory syndrome coronavirus 2, UniProt P0DTC2) | binding, biolayer interferometry |  |  |  | kon | 124 M⁻¹ s⁻¹ |
| CC(C)C[C@@H]1NC(=O)[C@H](CCCNC(=N)N)NC(=O)[C@@H]2CCCN2C(=O)[C@@H]2CSSC[C@H](NC(=O)CNC(=O)[C@@H]3CCCN3C(=O)[C@H](CCCCN)NC(=O)[C@H](CC(=O)O)NC(=O)[C@@H](NC(=O)CN)C(C)C)C(=O)N[C@@H](CCCNC(=N)N)C(=O)N[C@@H](Cc3ccc(O)cc3)C(=O)N[C@@H](CC(C)C)C(=O)N[C@@H](Cc3ccccc3)C(=O)NCC(=O)NCC(=O)N[C@H]3CSSC[C@H](NC(=O)CNC1=O)C(=O)N[C@@H](CCCCN)C(=O)NCC(=O)N[C@@H](CCCCN)C(=O)NCC(=O)N[C@@H](Cc1c[nH]cn1)C(=O)N[C@@H](CC(=O)O)C(=O)N[C@@H](Cc1ccc(O)cc1)C(=O)N[C@H](C(=O)N[C@@H](C)C(=O)N[C@@H](Cc1c[nH]c4ccccc14)C(=O)N[C@@H](CC(=O)O)C(=O)NCC(=O)N[C@H](C(=O)N[C@@H](Cc1ccccc1)C(=O)N[C@@H](CO)C(=O)N[C@@H](CC(=O)O)C(=O)O)[C@@H](C)O)CSSC[C@H](NC(=O)[C@H](CC(=O)O)NC(=O)[C@H](CC(=O)O)NC(=O)[C@H](CC(=O)O)NC(=O)[C@H](CO)NC(=O)[C@H](CCCCN)NC3=O)C(=O)N2 | SCN4A (Homo sapiens, UniProt P35499) | sodium current, automated patch clamp | HEK293 | 1 µM, 50 ms depolarizing pulse | relative to: compound over control | inactivation time constant ratio | 0.91 ± 0.05 |
